Measurements pooled from the literature.
Each line is one published result; not all experiments were run side by side. Numbers after ± are the reported error.
uncharacterized protein: uncharacterized protein (Drosophila suzukii, UniProt A0AB39ZGK5)
Sequence of UniProt Q5TCX8 (whole entry, looked up): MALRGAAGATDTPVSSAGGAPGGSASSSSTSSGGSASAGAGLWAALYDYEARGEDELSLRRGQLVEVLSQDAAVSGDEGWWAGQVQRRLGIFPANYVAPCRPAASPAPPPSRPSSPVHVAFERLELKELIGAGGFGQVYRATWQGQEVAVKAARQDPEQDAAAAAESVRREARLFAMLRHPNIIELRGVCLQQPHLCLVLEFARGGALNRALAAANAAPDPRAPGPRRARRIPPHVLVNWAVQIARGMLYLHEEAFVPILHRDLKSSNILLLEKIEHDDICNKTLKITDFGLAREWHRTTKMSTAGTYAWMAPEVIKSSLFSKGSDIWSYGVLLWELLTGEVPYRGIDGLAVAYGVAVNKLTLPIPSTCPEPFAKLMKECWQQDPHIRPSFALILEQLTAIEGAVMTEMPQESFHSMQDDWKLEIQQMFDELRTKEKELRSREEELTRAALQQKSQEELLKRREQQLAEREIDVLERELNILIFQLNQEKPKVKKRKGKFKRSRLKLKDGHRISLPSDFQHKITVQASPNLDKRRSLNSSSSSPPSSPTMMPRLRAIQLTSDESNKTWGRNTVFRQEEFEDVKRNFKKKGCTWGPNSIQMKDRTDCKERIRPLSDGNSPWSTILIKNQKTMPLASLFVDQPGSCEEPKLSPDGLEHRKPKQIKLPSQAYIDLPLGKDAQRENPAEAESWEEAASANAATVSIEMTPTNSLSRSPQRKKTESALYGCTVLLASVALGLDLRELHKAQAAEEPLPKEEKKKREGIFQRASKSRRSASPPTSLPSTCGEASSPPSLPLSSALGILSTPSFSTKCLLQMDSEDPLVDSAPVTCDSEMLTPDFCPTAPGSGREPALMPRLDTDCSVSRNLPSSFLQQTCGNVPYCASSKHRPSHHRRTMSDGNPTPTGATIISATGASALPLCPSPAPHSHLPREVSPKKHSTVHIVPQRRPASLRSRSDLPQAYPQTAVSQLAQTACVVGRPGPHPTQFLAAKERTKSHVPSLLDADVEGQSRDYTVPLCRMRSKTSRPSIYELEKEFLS
Sequence of UniProt P21397 (whole entry, looked up): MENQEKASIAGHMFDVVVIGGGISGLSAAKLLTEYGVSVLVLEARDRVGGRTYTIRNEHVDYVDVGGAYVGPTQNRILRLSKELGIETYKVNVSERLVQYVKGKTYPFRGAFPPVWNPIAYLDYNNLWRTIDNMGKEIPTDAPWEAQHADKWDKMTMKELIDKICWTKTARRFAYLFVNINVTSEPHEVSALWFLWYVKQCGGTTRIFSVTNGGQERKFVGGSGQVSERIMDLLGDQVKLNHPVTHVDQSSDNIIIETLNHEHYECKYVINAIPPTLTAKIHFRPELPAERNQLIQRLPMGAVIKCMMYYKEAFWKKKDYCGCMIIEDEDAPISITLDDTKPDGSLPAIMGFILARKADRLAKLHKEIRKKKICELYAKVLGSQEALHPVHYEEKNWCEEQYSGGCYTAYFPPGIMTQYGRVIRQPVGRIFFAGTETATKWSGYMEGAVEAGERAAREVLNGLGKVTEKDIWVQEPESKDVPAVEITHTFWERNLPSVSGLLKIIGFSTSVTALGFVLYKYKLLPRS
Sequence of UniProt Q16584 (whole entry, looked up): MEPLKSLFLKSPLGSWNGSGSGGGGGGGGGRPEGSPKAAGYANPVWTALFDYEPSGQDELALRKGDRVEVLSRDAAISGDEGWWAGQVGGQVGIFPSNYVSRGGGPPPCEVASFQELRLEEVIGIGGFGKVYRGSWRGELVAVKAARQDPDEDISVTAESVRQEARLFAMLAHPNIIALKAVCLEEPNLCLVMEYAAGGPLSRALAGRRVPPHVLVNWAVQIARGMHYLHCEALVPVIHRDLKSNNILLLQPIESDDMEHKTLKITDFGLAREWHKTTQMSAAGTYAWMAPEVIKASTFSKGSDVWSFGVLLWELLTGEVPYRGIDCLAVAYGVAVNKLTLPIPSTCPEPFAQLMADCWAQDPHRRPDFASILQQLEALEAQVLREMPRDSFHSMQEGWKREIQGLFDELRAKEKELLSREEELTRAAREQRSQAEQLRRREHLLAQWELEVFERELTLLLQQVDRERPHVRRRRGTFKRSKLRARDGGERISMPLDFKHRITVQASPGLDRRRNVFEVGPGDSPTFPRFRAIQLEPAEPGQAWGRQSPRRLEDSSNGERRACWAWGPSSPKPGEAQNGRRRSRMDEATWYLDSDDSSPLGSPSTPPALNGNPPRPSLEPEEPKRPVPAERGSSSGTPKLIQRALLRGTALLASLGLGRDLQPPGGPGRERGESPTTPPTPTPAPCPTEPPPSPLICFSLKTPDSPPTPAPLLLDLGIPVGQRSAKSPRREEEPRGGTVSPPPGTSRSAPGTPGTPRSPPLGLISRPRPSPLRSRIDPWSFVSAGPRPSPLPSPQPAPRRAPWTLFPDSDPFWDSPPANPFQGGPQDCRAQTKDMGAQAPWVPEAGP
Sequence of UniProt Q03111 (whole entry, looked up): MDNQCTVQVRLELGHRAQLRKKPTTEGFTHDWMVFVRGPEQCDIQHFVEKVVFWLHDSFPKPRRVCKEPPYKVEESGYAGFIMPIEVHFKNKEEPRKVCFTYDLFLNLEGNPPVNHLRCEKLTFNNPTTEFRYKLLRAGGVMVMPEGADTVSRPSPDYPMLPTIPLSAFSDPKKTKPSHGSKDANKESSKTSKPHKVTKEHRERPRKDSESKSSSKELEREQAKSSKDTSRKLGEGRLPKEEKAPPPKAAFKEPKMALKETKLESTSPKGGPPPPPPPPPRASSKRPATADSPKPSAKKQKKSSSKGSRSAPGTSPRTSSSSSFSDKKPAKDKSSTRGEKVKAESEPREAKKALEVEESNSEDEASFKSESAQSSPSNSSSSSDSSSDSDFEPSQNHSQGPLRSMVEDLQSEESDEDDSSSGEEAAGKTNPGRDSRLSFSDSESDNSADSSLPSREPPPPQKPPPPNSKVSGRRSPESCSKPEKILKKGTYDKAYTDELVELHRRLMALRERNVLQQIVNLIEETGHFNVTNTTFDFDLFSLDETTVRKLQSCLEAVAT
Sequence of UniProt Q83883 (whole entry, looked up): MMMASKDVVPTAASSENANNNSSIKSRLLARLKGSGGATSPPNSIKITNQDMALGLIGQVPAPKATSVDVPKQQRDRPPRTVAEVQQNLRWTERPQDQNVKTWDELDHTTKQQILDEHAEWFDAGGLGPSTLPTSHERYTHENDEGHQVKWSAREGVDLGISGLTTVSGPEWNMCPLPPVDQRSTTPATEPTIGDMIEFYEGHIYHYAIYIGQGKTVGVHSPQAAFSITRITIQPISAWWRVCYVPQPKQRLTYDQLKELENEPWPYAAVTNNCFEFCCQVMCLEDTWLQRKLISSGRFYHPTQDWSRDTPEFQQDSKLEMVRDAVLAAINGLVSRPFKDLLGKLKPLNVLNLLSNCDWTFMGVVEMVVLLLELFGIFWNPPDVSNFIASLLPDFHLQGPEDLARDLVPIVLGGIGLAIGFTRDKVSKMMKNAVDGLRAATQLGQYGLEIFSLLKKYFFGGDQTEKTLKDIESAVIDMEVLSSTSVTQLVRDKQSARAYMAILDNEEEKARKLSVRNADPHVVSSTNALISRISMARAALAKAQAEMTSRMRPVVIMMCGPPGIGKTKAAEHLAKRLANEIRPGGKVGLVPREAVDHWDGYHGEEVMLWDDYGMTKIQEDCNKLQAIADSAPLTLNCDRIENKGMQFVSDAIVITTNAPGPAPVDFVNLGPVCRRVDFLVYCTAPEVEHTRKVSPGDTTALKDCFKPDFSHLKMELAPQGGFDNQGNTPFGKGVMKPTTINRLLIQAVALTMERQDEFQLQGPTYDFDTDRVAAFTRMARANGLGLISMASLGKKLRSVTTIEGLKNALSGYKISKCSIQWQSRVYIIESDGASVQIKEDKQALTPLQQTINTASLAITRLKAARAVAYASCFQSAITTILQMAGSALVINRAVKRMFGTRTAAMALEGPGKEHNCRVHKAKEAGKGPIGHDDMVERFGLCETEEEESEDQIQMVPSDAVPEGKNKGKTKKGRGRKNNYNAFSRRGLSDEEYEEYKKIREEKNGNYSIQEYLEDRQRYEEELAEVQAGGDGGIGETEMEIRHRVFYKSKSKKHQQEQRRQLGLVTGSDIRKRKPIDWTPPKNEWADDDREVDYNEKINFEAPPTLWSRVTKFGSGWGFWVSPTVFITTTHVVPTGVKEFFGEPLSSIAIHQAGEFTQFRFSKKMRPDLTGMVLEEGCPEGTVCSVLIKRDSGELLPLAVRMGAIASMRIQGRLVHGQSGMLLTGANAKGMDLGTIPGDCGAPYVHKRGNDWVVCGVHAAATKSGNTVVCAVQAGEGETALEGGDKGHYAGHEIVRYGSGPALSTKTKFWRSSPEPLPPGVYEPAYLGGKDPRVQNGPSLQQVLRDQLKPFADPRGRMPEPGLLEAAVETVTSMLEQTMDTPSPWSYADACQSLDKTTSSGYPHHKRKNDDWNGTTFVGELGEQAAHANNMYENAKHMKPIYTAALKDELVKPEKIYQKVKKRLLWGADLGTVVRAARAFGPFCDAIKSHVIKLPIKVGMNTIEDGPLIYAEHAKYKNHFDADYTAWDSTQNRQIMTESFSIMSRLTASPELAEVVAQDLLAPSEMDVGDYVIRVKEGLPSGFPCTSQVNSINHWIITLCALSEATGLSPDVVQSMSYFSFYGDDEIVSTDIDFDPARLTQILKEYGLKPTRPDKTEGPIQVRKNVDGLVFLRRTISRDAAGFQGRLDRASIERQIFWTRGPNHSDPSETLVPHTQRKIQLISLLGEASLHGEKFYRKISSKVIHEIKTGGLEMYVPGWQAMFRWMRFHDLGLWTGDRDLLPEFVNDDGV

| Compound | target | test | test system | conditions | IC50 |
| --- | --- | --- | --- | --- | --- |
| CC[C@@H]1[C@H](F)C(=O)N[C@@H]1COc1nccc2cc(C(N)=O)c(OC)cc12 | MAP3K21 (Homo sapiens, UniProt Q5TCX8) | ATP probe binding, KiNativ profiling, refers to: MLK4 Lys2 probe site | THP-1 cell lysate |  | > 5 µM |
| Cc1nc(Nc2ncc(C(=O)Nc3c(C)cccc3Cl)s2)cc(N2CC[C@H](O)C2)n1 | LCK (Homo sapiens, UniProt P06239) | enzyme activity, inhibitor |  |  | 0.00012 µM |
| CCCCCCCCCCCC(=O)OC | uncharacterized protein | binding, bis-ANS competition fluorescence |  | pH 7.4, added: bis-ANS | > 50 µM |
| CN1CCN(c2ccc(Nc3ncc4cc(C#N)c(=O)n(C5CCCC5)c4n3)cc2)CC1 | MAP3K11 (Homo sapiens, UniProt Q16584) |  |  |  | 0.133 µM |
| Cc1ccc2c(NS(=O)(=O)c3ccccc3Cl)cccc2c1Oc1ncccc1-c1ccnc(N[C@H]2CCCNC2)n1 | ERN1 (Homo sapiens, UniProt O75460) | RNase activity, inhibitor, FRET suppression |  | 90 min preincubation, added: XBP1 RNA substrate | 2.33 µM |
| CCCCCCCC/C=C\CCCCCCCCCCCCC | uncharacterized protein | binding, bis-ANS competition fluorescence |  | pH 7.4, added: bis-ANS | > 50 µM |
| CC(C)C[C@H](NC(=O)[C@H](Cc1cccc2ccccc12)NC(=O)OCc1ccccc1)C(=O)NC(C[C@@H]1CCNC1=O)C1OC1S(C)(=O)=O (stereo partly shown) | Genome polyprotein, 3C-like protease (ORF1, Hu/NV/NV/1968/US, UniProt Q83883) | protease activity, inhibitor, FRET | GI.1 | 37 °C | > 10 µM |
| c1cc(N2CCCCC2)ccc1Nc1cc2ncc(OCC3CCNCC3)nc2cc1-c1ccc(N2CCCCC2)cc1 | Protein ENL, with AF4 (MLLT1, Homo sapiens, UniProt Q03111) | AlphaScreen |  |  | 0.56 ± 0.18 µM |
| O=C(Nc1ccc(Cl)c(Cl)c1)c1ccc2c(c1)C(=O)NC2=O | MAOA (Homo sapiens, UniProt P21397) |  |  |  | > 40 µM |
| OCCc1ccccc1 | uncharacterized protein | binding, bis-ANS competition fluorescence |  | pH 7.4, added: bis-ANS | > 50 µM |
